Results from different studies.
Each line is one published result; not all experiments were run side by side. Several values in a cell are separate wells, animals, samples, runs or records. ± marks the error that the study gave. Values after ≈ are worked out from the molar mass of the structure shown.
CDK2 with cyclin A: Cyclin-dependent kinase 2, with cyclin A (CDK2, Homo sapiens, UniProt P24941)

Compound = CC(=O)NC[C@H]1CN(c2ccc(N3CCOCC3)c(F)c2)C(=O)O1; tested on = Streptococcus agalactiae; test system = 25 clinical isolates; measurement = MIC50; result = 0.5 µg/mL (≈ 1.48 µM)
Compound = Cc1n[nH]c2ccc(-c3cc(OC[C@@H](N)Cc4ccccc4)cnc3-c3ccoc3)cc12; tested on = orf19.4144 kinase Candida albicans; test = MIB/MS competition binding; test system = Candida albicans cell lysate; conditions = 10 µM; scale = reference: DMSO, lower = stronger binding; measurement = log2 fold change; result = -2.63
Compound = C=C[C@]1(C)C[C@@H](OC(=O)CSCCN(CC)CC)[C@]2(C)[C@H](C)CC[C@]3(CCC(=O)[C@H]32)[C@@H](C)[C@@H]1O; tested on = Mycoplasma gallisepticum; test system = infected chickens; conditions = oral, 40 mg/kg, score scale 0 to 4; scale = direction not given; measurement = air sac lesion score; result = 2
Compound = CSc1ccc(S(=O)(=O)NCc2ccccn2)cc1; tested on = CDK2 with cyclin A; measurement = Kd; result = > 100 µM
Compound = CC(C)NCC(O)c1ccc(O)c(O)c1 (stereo not drawn); test system = ventricular cardiomyocytes, C57BL/6 mouse; conditions = dose not given, 0.132 s; measurement = sarcomere length; result = 1.65 µm
Compound = COc1cnc2cccc(N3CCc4c(cc(Cn5ccnc5C)cc4-c4cn(C)nc4C(F)(F)F)C3=O)c2c1; tested on = HPAF-II; test = cell growth; conditions = 120 h; measurement = EC50; result = > 30 µM
Compound = N#Cc1ccc2c(-c3ccncc3)c(-c3ccc(F)cc3)nn2c1; tested on = orf19.4144 kinase Candida albicans; test = MIB/MS competition binding; test system = Candida albicans cell lysate; conditions = 10 µM; scale = reference: DMSO, lower = stronger binding; measurement = log2 fold change; result = 0.0512
Compound = CN[C@H](CC(C)C)C(=O)N[C@H]1C(=O)N[C@@H](CC(N)=O)C(=O)N[C@H]2C(=O)N[C@H]3C(=O)N[C@H](C(=O)N[C@H](C(=O)O)c4cc(O)cc(O)c4-c4cc3ccc4O)[C@H](O)c3ccc(c(Cl)c3)Oc3cc2cc(c3O[C@@H]2O[C@H](CO)[C@@H](O)[C@H](O)[C@H]2O[C@H]2C[C@](C)(N)[C@H](O)[C@H](C)O2)Oc2ccc(cc2Cl)[C@H]1O; tested on = Staphylococcus; test system = MRSA-11, mouse systemic infection; conditions = intravenous; scale = survival; measurement = ED50; result = 9.92 mg/kg
Compound = Cn1c(Cc2ccccc2)nnc1Sc1ccc([N+](=O)[O-])cc1C(=O)N1CCOCC1; tested on = CDK2 with cyclin A; measurement = Kd; result = > 100 µM
Compound = [Cl][111In]([Cl])[Cl]; tested on = U2OS-53BP1 tumour model; test = 111In radiolabel; test system = host not given; conditions = 18 h; measurement = cellular uptake; result = 0.17 to 0.23 %ID/mg protein
Compound = CCn1cc(-c2cc(Cn3ccnc3)cc3c2CCN([C@H](c2cc(OC)ccn2)C2CC2)C3=O)c(C(F)(F)F)n1; tested on = AGS; test = cell growth, inhibitor; conditions = 120 h; measurement = EC50; result = 23.9 µM
Compound = Cc1cnc(NC2CCOCC2)nc1-n1cnc(C(=O)NC(CN)c2cc(F)cc(Cl)c2)c1 (stereo not drawn); tested on = MINO; test = flow cytometry; conditions = 1 µM, 72 h; measurement = G1 phase cells; result = 47%
Compound = Oc1ccccc1-c1n[nH]cc1-c1ccnc2ccccc12; tested on = RIM15 (Candida albicans); test = kinase binding, MIB/MS competition; test system = Candida albicans lysate; conditions = 1 µM; scale = reference: DMSO; measurement = log2 fold change; result = -0.31
Compound = c1ccc(-c2n[nH]cc2-c2ccnc3ccccc23)nc1; tested on = orf19.4144 kinase Candida albicans; test = MIB/MS competition binding; test system = Candida albicans cell lysate; conditions = 100 nM; scale = reference: DMSO, lower = stronger binding; measurement = log2 fold change; result = 1.32
Compound = O=C(N1CCc2ccccc21)n1ccnn1; tested on = Arabidopsis thaliana; test system = wild type, seedlings; conditions = 3 µM, continuous red light, added: 0.3 µM karrikin KAR2; measurement = hypocotyl length; result = 9.3 mm
Compound = NC(=O)c1cnc2[nH]ccc2c1N[C@@H]1[C@@H]2CC3C[C@H]1C[C@@](O)(C3)C2; test = flow cytometry, item: CD4+ central memory T cells; test system = Japanese healthy subjects, peripheral blood; conditions = oral, 10 mg twice daily, day 4; measurement = change from baseline; result = 0.1%
Compound = CC(C)n1ncc2c(C(=O)NCC3(C)CNC3)cc(C3CC3)nc21; tested on = Enterovirus D68; test = cytopathic effect; test system = RD, US/IL/14-18952; conditions = 500 nM; measurement = cell protection; result = 96.9% and 91.5% and 93.2%
Compound = CCn1cc(-c2cc(Cn3ccoc3=N)cc3c2CCN([C@@H](C)c2cc(OC)ccn2)C3=O)c(C(F)(F)F)n1; tested on = CA46; test = cell growth, inhibitor; conditions = 120 h; measurement = EC50; result = 0.605 µM
Compound = Cn1cc(-c2ccc(-c3cncc(Cl)c3N3CCC4(CCNC4=O)CC3)cc2)cn1; tested on = COLO 205; test = gene expression, microarray, item: GDF15 (PDF) mRNA; conditions = concentration not given, 6 h; scale = reference: untreated cells; measurement = log2 fold change; result = 2.66
Compound = N#Cc1ccn2c(-c3ccncc3)c(-c3ccc(F)cc3)nc2c1; tested on = orf19.4144 kinase Candida albicans; test = MIB/MS competition binding; test system = Candida albicans cell lysate; conditions = 100 nM; scale = reference: DMSO, lower = stronger binding; measurement = log2 fold change; result = 0.135
Compound = c1coc(-c2n[nH]cc2-c2ccnc3ccccc23)c1; tested on = orf19.3456 Candida albicans; test = kinase binding, MIB/MS competition; test system = Candida albicans lysate; conditions = 10 µM; scale = reference: DMSO; measurement = log2 fold change; result = -0.36
Compound = COc1cc(C(=O)NS(=O)(=O)c2ccccc2C)ccc1Cc1cn(C)c2ccc(NC(=O)OC3CCCC3)cc12; tested on = native VRAC; test = ion current, inhibitor, whole-cell patch clamp; test system = wild-type HCT cells; conditions = 1 µM, pH 7.4, extracellular pH; measurement = inhibition; result = -12.5% and 12.2% and -18.2% and -2.43% and -1.79%
Compound = O=C(/C=C/C=C/C=C/C1CCCCC1)NC1=C[C@@](O)(/C=C/C=C/C=C/C(=O)NC2=C(O)CCC2=O)[C@@H]2O[C@@H]2C1=O; tested on = KYSE-510; test = cell growth, CellTiter-Glo; conditions = 78 h; measurement = GI50; result = 19.1 µM
Compound = CC/C(=N\NC(=O)NCc1cccc(O)c1)c1ccc(O)c(C)c1O; tested on = SK-OV-3; test = Western blot; conditions = 20 µM, 1 h, 3D gellan gum culture, unit not given; scale = reference: DMSO; measurement = LATS band intensity; result = 1 ± 0.58

Excerpt of the above:
Compound = COc1cc(C(=O)NS(=O)(=O)c2ccccc2C)ccc1Cc1cn(C)c2ccc(NC(=O)OC3CCCC3)cc12; tested on = native VRAC; test = ion current, inhibitor, whole-cell patch clamp; test system = wild-type HCT cells; conditions = 1 µM, pH 7.4, extracellular pH; measurement = inhibition; result = -12.5% and 12.2% and -18.2% and -2.43% and -1.79%
